{"data": "Results from different studies", "IDE": "Insulin-degrading enzyme (IDE, Homo sapiens, UniProt P14735)", "Cereblon/Ikaros": "Cereblon/Ikaros (Homo sapiens, UniProt Q13422+Q96SW2)", "Urea transporter 1": "Urea transporter 1 (Homo sapiens, UniProt Q13336)", "USP33 ZnF-UBD domain": "Ubiquitin carboxyl-terminal hydrolase 33, ZnF-UBD domain (USP33, Homo sapiens, UniProt Q8TEY7)", "note": "Lines come from different studies, so protocols differ. Several values in a cell are separate wells, animals, samples, runs or records. ± gives the spread as reported.", "UniProt Q96SW2, sequence (whole entry, looked up)": "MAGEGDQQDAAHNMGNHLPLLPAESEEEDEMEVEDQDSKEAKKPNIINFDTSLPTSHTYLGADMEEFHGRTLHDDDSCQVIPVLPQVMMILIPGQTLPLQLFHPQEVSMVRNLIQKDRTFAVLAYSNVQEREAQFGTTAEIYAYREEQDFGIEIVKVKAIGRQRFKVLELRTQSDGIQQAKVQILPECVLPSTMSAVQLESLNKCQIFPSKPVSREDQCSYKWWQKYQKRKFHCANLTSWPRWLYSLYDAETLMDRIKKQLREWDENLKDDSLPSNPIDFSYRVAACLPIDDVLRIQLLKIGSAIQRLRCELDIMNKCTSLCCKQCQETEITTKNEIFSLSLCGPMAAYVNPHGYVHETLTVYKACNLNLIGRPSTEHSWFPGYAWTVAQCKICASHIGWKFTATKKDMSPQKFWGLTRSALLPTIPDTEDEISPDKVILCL", "UniProt Q13422, sequence (whole entry, looked up)": "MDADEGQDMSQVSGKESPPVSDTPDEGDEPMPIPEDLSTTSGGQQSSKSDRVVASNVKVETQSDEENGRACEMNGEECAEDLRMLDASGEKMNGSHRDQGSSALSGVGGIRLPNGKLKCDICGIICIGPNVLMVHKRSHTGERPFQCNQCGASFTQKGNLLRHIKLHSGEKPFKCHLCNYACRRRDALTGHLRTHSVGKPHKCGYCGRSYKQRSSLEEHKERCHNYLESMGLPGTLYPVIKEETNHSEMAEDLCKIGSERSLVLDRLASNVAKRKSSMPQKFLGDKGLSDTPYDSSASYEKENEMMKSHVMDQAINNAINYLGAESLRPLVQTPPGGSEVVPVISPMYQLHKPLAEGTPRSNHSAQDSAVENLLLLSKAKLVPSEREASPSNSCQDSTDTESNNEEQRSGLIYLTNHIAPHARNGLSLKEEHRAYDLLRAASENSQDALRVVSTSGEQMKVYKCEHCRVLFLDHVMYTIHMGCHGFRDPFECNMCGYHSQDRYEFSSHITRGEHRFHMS", "UniProt Q8TEY7, sequence (whole entry, looked up)": "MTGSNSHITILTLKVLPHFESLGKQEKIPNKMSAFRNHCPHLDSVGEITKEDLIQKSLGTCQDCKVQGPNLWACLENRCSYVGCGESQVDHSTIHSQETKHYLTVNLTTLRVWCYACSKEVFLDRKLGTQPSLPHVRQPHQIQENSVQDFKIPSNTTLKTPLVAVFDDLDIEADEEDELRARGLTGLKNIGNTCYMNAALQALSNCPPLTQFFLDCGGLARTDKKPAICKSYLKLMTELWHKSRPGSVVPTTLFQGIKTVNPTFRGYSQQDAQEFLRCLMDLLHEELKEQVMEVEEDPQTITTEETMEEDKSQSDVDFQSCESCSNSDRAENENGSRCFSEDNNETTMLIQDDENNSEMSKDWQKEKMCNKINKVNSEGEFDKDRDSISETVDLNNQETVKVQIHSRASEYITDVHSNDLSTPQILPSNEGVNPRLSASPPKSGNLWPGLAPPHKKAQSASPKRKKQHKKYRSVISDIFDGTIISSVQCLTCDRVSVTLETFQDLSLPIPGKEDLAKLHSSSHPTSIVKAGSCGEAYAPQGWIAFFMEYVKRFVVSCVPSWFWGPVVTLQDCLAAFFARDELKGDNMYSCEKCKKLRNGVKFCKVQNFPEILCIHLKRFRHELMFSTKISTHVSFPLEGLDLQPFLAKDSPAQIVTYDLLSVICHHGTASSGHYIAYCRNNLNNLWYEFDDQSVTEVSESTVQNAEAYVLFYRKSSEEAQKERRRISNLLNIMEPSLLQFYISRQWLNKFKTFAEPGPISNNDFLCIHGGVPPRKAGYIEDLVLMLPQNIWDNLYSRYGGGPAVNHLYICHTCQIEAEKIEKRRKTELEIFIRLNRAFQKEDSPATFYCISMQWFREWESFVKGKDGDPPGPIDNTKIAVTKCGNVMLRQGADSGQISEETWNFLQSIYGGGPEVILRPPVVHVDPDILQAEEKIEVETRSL", "UniProt Q13336, sequence (whole entry, looked up)": "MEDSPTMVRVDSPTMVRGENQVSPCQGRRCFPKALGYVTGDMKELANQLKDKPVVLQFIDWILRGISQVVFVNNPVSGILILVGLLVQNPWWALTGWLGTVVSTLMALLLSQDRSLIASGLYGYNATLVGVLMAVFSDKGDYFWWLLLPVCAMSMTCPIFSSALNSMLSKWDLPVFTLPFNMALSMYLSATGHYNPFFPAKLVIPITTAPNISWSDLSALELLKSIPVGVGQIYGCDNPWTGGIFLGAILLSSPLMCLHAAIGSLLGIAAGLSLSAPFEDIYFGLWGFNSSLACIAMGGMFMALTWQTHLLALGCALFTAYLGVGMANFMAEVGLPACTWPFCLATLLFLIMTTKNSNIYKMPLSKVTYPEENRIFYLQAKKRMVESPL", "UniProt P37231, sequence (whole entry, looked up)": "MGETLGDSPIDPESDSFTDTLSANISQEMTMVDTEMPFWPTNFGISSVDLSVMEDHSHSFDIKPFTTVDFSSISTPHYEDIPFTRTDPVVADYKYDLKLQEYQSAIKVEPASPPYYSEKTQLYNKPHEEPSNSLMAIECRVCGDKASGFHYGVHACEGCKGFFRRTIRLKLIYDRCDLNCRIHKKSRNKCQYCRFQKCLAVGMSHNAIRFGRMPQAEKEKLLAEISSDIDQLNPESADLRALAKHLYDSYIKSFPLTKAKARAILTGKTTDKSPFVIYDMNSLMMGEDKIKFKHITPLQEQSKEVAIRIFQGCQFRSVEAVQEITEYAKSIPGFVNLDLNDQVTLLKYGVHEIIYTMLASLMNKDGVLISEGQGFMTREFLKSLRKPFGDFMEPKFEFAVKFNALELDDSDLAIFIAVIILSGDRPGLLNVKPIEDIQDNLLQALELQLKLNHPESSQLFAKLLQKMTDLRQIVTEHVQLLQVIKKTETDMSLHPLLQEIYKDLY", "UniProt Q16774, sequence (whole entry, unmodified, looked up)": "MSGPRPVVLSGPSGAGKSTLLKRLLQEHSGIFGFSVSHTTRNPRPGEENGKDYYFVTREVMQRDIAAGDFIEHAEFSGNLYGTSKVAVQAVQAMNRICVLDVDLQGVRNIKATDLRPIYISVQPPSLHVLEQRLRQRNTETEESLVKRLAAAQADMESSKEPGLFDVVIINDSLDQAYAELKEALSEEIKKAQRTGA", "UniProt P05181, sequence (whole entry, looked up)": "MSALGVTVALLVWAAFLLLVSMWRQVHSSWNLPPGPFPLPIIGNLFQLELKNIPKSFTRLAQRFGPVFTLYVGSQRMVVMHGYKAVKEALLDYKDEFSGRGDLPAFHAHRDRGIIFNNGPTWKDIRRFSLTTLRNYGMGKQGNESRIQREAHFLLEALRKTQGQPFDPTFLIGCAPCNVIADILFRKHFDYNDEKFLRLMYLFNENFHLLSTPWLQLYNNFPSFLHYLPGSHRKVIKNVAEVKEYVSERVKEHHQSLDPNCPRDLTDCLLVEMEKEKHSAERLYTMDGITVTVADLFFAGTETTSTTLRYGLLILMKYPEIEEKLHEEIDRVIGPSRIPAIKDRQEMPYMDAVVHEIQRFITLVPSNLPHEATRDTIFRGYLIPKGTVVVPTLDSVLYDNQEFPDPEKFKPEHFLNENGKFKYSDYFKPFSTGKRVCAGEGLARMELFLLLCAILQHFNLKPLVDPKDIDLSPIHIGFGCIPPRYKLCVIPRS"}
{"SMILES": "Cc1cccc(-c2ccc([C@@H]3[C@@H](CO)N4C(=O)CN(C(=O)NC5CCCCC5)C[C@@H]34)cc2)c1", "target": "IDE", "assay": "enzyme activity, inhibitor, fluorogenic kinetic", "conditions": "added: Mca-RPPGFSAFK(Dnp)-OH substrate", "endpoint": "EC50", "value": "0.67 µM"}
{"SMILES": "CCC(C)(NCCc1ccc(Cl)c(Cl)c1)c1cccc(NC2=CC(=O)N(C3CCC(=O)NC3=O)C2=O)c1 (stereo not shown)", "target": "Cereblon/Ikaros", "assay": "degrader", "endpoint": "DC50", "value": "0.07 ± 0.009 µM"}
{"SMILES": "NC(=O)Nc1ccccc1", "target": "Urea transporter 1", "assay": "urea transport inhibition", "conditions": "added: thiourea", "endpoint": "Ki", "value": "1000 µM"}
{"SMILES": "Cn1nc(Nc2ccc3c(c2)CN(C2CCC(=O)NC2=O)C3=O)c2ccccc21 (stereo not shown)", "target": "Cereblon/Ikaros", "assay": "degrader, live-cell HiBiT kinetic", "system": "Jurkat Ikaros-HiBiT LgBiT", "endpoint": "DC50", "value": "> 10 µM"}
{"SMILES": "Cc1ccccc1C(=O)Nc1nnc(S(N)(=O)=O)s1", "target": "Enterococcus faecium γ-carbonic anhydrase", "assay": "CO2 hydration, inhibitor, stopped-flow kinetics", "endpoint": "Ki", "value": "0.113 µM"}
{"SMILES": "Nc1ncnc2c1ncn2[C@@H]1O[C@H](COP(=O)(O)OP(=O)(O)O)[C@@H](O)[C@H]1O", "target": "GUK1 (Homo sapiens, UniProt Q16774, K17A)", "assay": "binding, ITC", "conditions": "25 °C, added: GMP", "endpoint": "Kd", "value": "> 200 µM"}
{"SMILES": "CC(C)(NCCCc1ccc(C(F)(F)F)c(Cl)c1)c1cccc(NC2=CC(=O)N(C3CCC(=O)NC3=O)C2=O)c1 (stereo not shown)", "target": "Cereblon/Ikaros", "assay": "degrader", "endpoint": "DC50", "value": "0.1 µM"}
{"SMILES": "CCc1oc2ccccc2c1C(=O)c1ccc(O)cc1", "target": "Cytochrome P450 2E1 (CYP2E1, Homo sapiens, UniProt P05181)", "assay": "p-nitrophenol hydroxylation, nonlinear fit", "system": "baculosomes", "conditions": "10 min", "endpoint": "Ki", "value": "0.0048 µM"}
{"SMILES": "O=C(O)CC1Oc2ccccc2NC1=O (stereo not shown)", "target": "USP33 ZnF-UBD domain", "endpoint": "Kd", "value": "> 1000 µM"}
{"SMILES": "COc1cccc(C#Cc2ccc([C@@H]3[C@H](CO)N4C(=O)CN(C(C)=O)C[C@@H]34)cc2)c1", "target": "IDE", "assay": "enzyme activity, inhibitor, fluorogenic kinetic", "conditions": "added: Mca-RPPGFSAFK(Dnp)-OH substrate", "endpoint": "EC50", "value": "3.7 µM"}
{"SMILES": "O=C(O)CCn1sc2ccccc2c1=O", "target": "USP33 ZnF-UBD domain", "endpoint": "Kd", "value": "> 1000 µM"}
{"SMILES": "O=C1CCC(N2Cc3cc(Nc4nc5ccccc5o4)ccc3C2=O)C(=O)N1 (stereo not shown)", "target": "Cereblon/Ikaros", "assay": "degrader, live-cell HiBiT kinetic", "system": "Jurkat Ikaros-HiBiT LgBiT", "endpoint": "DC50", "value": "> 10 µM"}
{"SMILES": "CCC(C)(NCCc1ccc(OC)c(Cl)c1)c1cccc(NC2=CC(=O)N(C3CCC(=O)NC3=O)C2=O)c1 (stereo not shown)", "target": "Cereblon/Ikaros", "assay": "degrader, HiBiT", "system": "Jurkat", "conditions": "5 h", "endpoint": "DC50", "value": "0.02 ± 0.002 µM"}
{"SMILES": "Cc1ccccc1-c1ccc([C@H]2[C@@H](CO)N3CCCCN(S(=O)(=O)Cc4ccccc4)C[C@@H]23)cc1", "target": "IDE", "assay": "enzyme activity, inhibitor, fluorogenic kinetic", "conditions": "added: Mca-RPPGFSAFK(Dnp)-OH substrate", "endpoint": "EC50", "value": "44 µM"}
{"SMILES": "C[C@H]1CCC[C@@H](C(=O)Nc2nnc(S(N)(=O)=O)s2)C1 (racemic)", "target": "Enterococcus faecium γ-carbonic anhydrase", "assay": "CO2 hydration, inhibitor, stopped-flow kinetics", "endpoint": "Ki", "value": "0.131 µM"}
{"SMILES": "Cc1cc(NC2=CC(=O)N(C3CCC(=O)NC3=O)C2=O)cc(C(C)(C)NCCc2ccc(C(F)(F)F)c(Cl)c2)c1 (stereo not shown)", "target": "Cereblon/Ikaros", "assay": "degrader, HiBiT luminescence, measured: endogenous HiBiT-tagged protein", "endpoint": "DC50", "value": "0.61 ± 0.4 µM"}
{"SMILES": "COc1ccc(C=C2SC(=O)N(C(C)C(=O)O)C2=O)cc1 (stereo not shown)", "target": "USP33 ZnF-UBD domain", "endpoint": "Kd", "value": "> 1000 µM"}
{"SMILES": "NS(=O)(=O)c1nnc(NC(=O)CN2CCC3(CC2)CC3)s1", "target": "Enterococcus faecium γ-carbonic anhydrase", "assay": "CO2 hydration, inhibitor, stopped-flow kinetics", "endpoint": "Ki", "value": "0.099 µM"}
{"SMILES": "Cc1ccc(C(=O)Nc2ccc3c(c2)CN(C2CCC(=O)NC2=O)C3=O)cc1 (stereo not shown)", "target": "Cereblon/Ikaros", "assay": "degrader, live-cell HiBiT kinetic", "system": "Jurkat Ikaros-HiBiT LgBiT", "endpoint": "DC50", "value": "> 10 µM"}
{"SMILES": "Cc1cccc(-c2ccc([C@@H]3[C@@H](CF)N4CCCCN(S(=O)(=O)c5ccccc5C(F)(F)F)C[C@@H]34)cc2)c1C", "target": "IDE", "assay": "enzyme activity, inhibitor, fluorescence kinetic", "conditions": "added: Mca-RPPGFSAFK(Dnp)-OH substrate", "endpoint": "EC50", "value": "0.024 µM"}
{"SMILES": "CC(C)(CNC1(c2cccc(NC3=CC(=O)N(C4CCC(=O)NC4=O)C3=O)c2)CCC1)c1ccc(C(F)(F)F)c(Cl)c1 (stereo not shown)", "target": "Cereblon/Ikaros", "assay": "degrader", "endpoint": "DC50", "value": "0.55 ± 0.06 µM"}
{"SMILES": "Cc1ccc(C(=O)O)cc1S(=O)(=O)Nc1cccc(C(=O)CCC(=O)O)c1", "target": "USP33 ZnF-UBD domain", "endpoint": "Kd", "value": "537 µM"}
{"SMILES": "Nc1ncnc2c1ncn2[C@@H]1O[C@H](COP(=O)(O)OP(=O)(O)O)[C@@H](O)[C@H]1O", "target": "klp-6 (Caenorhabditis elegans, UniProt G5EFQ4, S116T)", "assay": "microtubule gliding velocity, competitive inhibitor, single-molecule TIRF", "conditions": "pH 7.4, added: Mg-ATP varied, porcine microtubules", "endpoint": "Ki", "value": "31.2 ± 0.9 µM"}
{"SMILES": "Cc1ccccc1S(=O)(=O)N1CCCCN2[C@H](CO)[C@@H](c3ccc(-c4cccc(O)c4)cc3)[C@@H]2C1", "target": "IDE", "assay": "enzyme activity, inhibitor, fluorescence kinetic", "conditions": "added: Mca-RPPGFSAFK(Dnp)-OH substrate", "endpoint": "EC50", "value": "7.3 µM"}
{"SMILES": "Cc1ccccc1CC(=O)Nc1nnc(S(N)(=O)=O)s1", "target": "Enterococcus faecium γ-carbonic anhydrase", "assay": "CO2 hydration, inhibitor, stopped-flow kinetics", "endpoint": "Ki", "value": "0.0693 µM"}
{"SMILES": "N[C@@H](CCC(=O)O)C(=O)O", "target": "Uncharacterized protein (Pelagibacter ubique, UniProt Q4FM26)", "assay": "binding, competition isothermal titration calorimetry", "system": "Candidatus Pelagibacter ubique", "conditions": "added: phenylalanine competitor", "endpoint": "Kd", "value": "0.00067 µM and 0.00053 µM"}
{"SMILES": "NC(=S)Nc1ccc(Cl)c(Cl)c1", "target": "Urea transporter 1", "assay": "urea transport inhibition", "conditions": "added: thiourea", "endpoint": "Ki", "value": "10 µM and ~30 µM"}
{"SMILES": "CCC(C)(NCCc1ccc(C)cc1)c1cccc(NC2=CC(=O)N(C3CCC(=O)NC3=O)C2=O)c1 (stereo not shown)", "target": "Cereblon/Ikaros", "assay": "degrader, HiBiT luminescence, measured: endogenous HiBiT-tagged protein", "endpoint": "DC50", "value": "0.06 ± 0.011 µM"}
{"SMILES": "NS(=O)(=O)c1nnc(NC(=O)CCCCC2CCCCC2)s1", "target": "Enterococcus faecium γ-carbonic anhydrase", "assay": "CO2 hydration, inhibitor, stopped-flow kinetics", "endpoint": "Ki", "value": "0.587 µM"}
{"SMILES": "CN1C(=O)c2cc(NC(=O)Nc3ccccc3Cl)ccc2OC[C@H]2O[C@H](CC(=O)NCCCN3CCOCC3)CC[C@@H]21", "target": "IDE", "assay": "enzyme activity, inhibitor, fluorogenic kinetic", "conditions": "added: Mca-RPPGFSAFK(Dnp)-OH substrate", "endpoint": "EC50", "value": "1.7 µM"}
{"SMILES": "O=C(O)Cn1ccc2ccccc2c1=O", "target": "USP33 ZnF-UBD domain", "endpoint": "Kd", "value": "> 1000 µM"}
{"SMILES": "CN(CCc1ccc(Cl)c(C(F)(F)F)c1)C1(c2cccc(NC3=CC(=O)N(C4CCC(=O)NC4=O)C3=O)c2)CCC1 (stereo not shown)", "target": "Cereblon/Ikaros", "assay": "degrader", "system": "human cells", "endpoint": "DC50", "value": "0.01 µM"}
{"SMILES": "Cc1cc(NC(=O)CCC(=O)O)nn1C", "target": "USP33 ZnF-UBD domain", "endpoint": "Kd", "value": "> 1000 µM"}
{"SMILES": "O=C1CCC(N2Cc3cc(NC(=O)c4cccc(C(F)(F)F)c4)ccc3C2=O)C(=O)N1 (stereo not shown)", "target": "Cereblon/Ikaros", "assay": "degrader, live-cell HiBiT kinetic", "system": "Jurkat Ikaros-HiBiT LgBiT", "endpoint": "DC50", "value": "> 10 µM"}
{"SMILES": "NS(=O)(=O)c1nnc(NC(=O)C2CC23CCCCC3)s1 (stereo not shown)", "target": "Enterococcus faecium γ-carbonic anhydrase", "assay": "CO2 hydration, inhibitor, stopped-flow kinetics", "endpoint": "Ki", "value": "0.222 µM"}
{"SMILES": "O=C(O)CCC1=Nc2cccc3cccc(c23)N1", "target": "USP33 ZnF-UBD domain", "endpoint": "Kd", "value": "> 1000 µM"}
{"SMILES": "COc1ccccc1-c1ccc([C@H]2[C@H](C#N)N[C@@H]2CO)cc1", "target": "IDE", "assay": "enzyme activity, inhibitor, fluorogenic kinetic", "conditions": "added: Mca-RPPGFSAFK(Dnp)-OH substrate", "endpoint": "EC50", "value": "6.3 µM"}
{"SMILES": "N#Cc1c2n(c3c(=O)n(CC(=O)O)cnc13)CCCC2", "target": "USP33 ZnF-UBD domain", "endpoint": "Kd", "value": "> 1000 µM"}
{"SMILES": "NS(=O)(=O)c1nnc(NC(=O)C2CCCC3(CCCCC3)C2)s1 (stereo not shown)", "target": "Enterococcus faecium γ-carbonic anhydrase", "assay": "CO2 hydration, inhibitor, stopped-flow kinetics", "endpoint": "Ki", "value": "0.448 µM"}
{"SMILES": "O=C(Nc1ccc(CCF)cc1)c1cc([N+](=O)[O-])ccc1Cl", "target": "Peroxisome proliferator-activated receptor gamma, with RXR (PPARG, Homo sapiens, UniProt P37231)", "assay": "reporter gene, antagonist, PPRE-TK-luciferase", "system": "transfected HepG2", "conditions": "24 h, added: GW1929", "endpoint": "IC50", "value": "0.02 µM and 0.0199 µM"}
{"SMILES": "CCC(C)(NCCc1ccc(C(F)(F)F)cc1C(F)(F)F)c1cccc(NC2=CC(=O)N(C3CCC(=O)NC3=O)C2=O)c1 (stereo not shown)", "target": "Cereblon/Ikaros", "assay": "degrader, HiBiT luminescence, measured: endogenous HiBiT-tagged protein", "endpoint": "DC50", "value": "0.19 ± 0.038 µM"}
{"SMILES": "NS(=O)(=O)c1nnc(NC(=O)C2CCC3(CCC3)CC2)s1", "target": "Enterococcus faecium γ-carbonic anhydrase", "assay": "CO2 hydration, inhibitor, stopped-flow kinetics", "endpoint": "Ki", "value": "0.23 µM"}
{"SMILES": "COc1ccccc1C#Cc1ccc([C@H]2[C@H](CO)N3CCCCN(C(=O)C4CCC4)C[C@@H]23)cc1", "target": "IDE", "assay": "enzyme activity, inhibitor, fluorogenic kinetic", "conditions": "added: Mca-RPPGFSAFK(Dnp)-OH substrate", "endpoint": "EC50", "value": "2.7 µM"}
{"note": "For quick reference, copied from above:"}
{"SMILES": "Cc1ccccc1-c1ccc([C@H]2[C@@H](CO)N3CCCCN(S(=O)(=O)Cc4ccccc4)C[C@@H]23)cc1", "target": "IDE", "assay": "enzyme activity, inhibitor, fluorogenic kinetic", "conditions": "added: Mca-RPPGFSAFK(Dnp)-OH substrate", "endpoint": "EC50", "value": "44 µM"}
{"SMILES": "Cc1ccc(C(=O)Nc2ccc3c(c2)CN(C2CCC(=O)NC2=O)C3=O)cc1 (stereo not shown)", "target": "Cereblon/Ikaros", "assay": "degrader, live-cell HiBiT kinetic", "system": "Jurkat Ikaros-HiBiT LgBiT", "endpoint": "DC50", "value": "> 10 µM"}
{"SMILES": "CN(CCc1ccc(Cl)c(C(F)(F)F)c1)C1(c2cccc(NC3=CC(=O)N(C4CCC(=O)NC4=O)C3=O)c2)CCC1 (stereo not shown)", "target": "Cereblon/Ikaros", "assay": "degrader", "system": "human cells", "endpoint": "DC50", "value": "0.01 µM"}
